Measured values from different studies.
Lines come from different studies, so protocols differ. “And” joins repeats or separate records; there may be more than shown. ± gives the spread as reported.
Target: Acetylcholinesterase (ache, Electrophorus electricus, UniProt O42275)
UniProt O42275, sequence (whole entry, looked up): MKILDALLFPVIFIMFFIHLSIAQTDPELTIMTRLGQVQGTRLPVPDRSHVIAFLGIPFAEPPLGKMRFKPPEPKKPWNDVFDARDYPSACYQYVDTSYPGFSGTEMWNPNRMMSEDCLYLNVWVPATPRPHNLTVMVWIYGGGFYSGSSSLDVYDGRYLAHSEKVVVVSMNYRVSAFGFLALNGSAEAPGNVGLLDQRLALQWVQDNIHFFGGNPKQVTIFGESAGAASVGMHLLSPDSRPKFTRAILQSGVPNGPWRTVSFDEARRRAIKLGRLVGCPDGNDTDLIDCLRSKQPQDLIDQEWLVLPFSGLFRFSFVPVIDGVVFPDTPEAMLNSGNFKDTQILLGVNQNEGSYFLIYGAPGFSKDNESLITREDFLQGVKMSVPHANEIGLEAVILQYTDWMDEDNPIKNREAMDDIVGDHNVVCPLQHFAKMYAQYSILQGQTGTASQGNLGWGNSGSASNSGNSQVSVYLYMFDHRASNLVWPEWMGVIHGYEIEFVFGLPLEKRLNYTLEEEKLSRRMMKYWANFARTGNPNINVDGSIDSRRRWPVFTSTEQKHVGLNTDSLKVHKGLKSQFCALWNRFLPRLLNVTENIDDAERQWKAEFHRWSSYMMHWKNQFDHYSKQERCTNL
Effect on: enzyme activity
Mode: inhibitor

| Structure (SMILES) | test | conditions | IC50 |
| --- | --- | --- | --- |
| COc1cc(/C=N/NC(=O)COc2ccc(Sc3ccc(OCC(=O)N/N=C/c4cc(OC)c(OC)c(OC)c4)cc3)cc2)cc(OC)c1OC | – | – | 67 µM |
| COc1cc2c(cc1OC)C(=O)C1(C2)C(c2ccccc2C)C(Cc2c[nH]c3ccccc23)NC12C(=O)Nc1ccc(OC(F)(F)F)cc12 (stereo not drawn) | – | pH 8 | 6.43 µM and < 10 µM |
| COc1cc(/C=C/C(=O)CC(=O)/C=C/c2ccc(OC(=O)CCc3c[nH]c4ccccc34)c(OC)c2)ccc1OC(=O)CCc1c[nH]c2ccccc12 | – | with preincubation | 5.66 µM |
| N=C(N)N/N=C(/C=C/c1ccccc1)c1cn(Cc2ccccc2)c2ccccc12 | Ellman | – | 146 µM |
| Cc1ccc(-c2nc3ccc(/N=N/c4ccc(Br)cc4)cc3c(-c3ccccc3)c2I)cc1 | Ellman | pH 7.4 | 12 µM |
| NNC(=O)COc1ccc(Sc2ccc(OCC(=O)NN)cc2)cc1 | – | – | 23.1 µM |
| Clc1ccc(/N=N/c2ccc3nc(-c4ccccc4)c(I)c(-c4ccccc4)c3c2)cc1 | Ellman | pH 7.4 | 15.9 µM |
| COc1cc2c(cc1OC)C(=O)C(=CCC1CCN(Cc3ccccc3)CC1)C2 | Ellman | – | 0.036 µM |
| COc1ccc(/C=N/NC(=O)COc2ccc(Sc3ccc(OCC(=O)N/N=C/c4ccc(OC)c(OC)c4)cc3)cc2)cc1OC | – | – | 25.7 µM |
| O=C(CN1C(=O)c2ccccc2C1=O)Nc1cc[n+](Cc2ccc(F)cc2)cc1 | Ellman | – | 2.1 µM |
| CCC1c2cc(OC)c(O)cc2C(c2ccc(O)c(OC)c2)C1C (stereo not drawn) | Ellman | pH 7.5 | 287 µM |
| COc1ccc(-c2c(C#N)c(N)nc3c2CCc2nc4c(cc2-3)c(C)nn4-c2ccccc2)cc1 | Ellman | – | 53.3 µM |
| COc1cc(/C=C/C(=O)NC(C)C(N)=O)ccc1OCc1ccccc1 (stereo not drawn) | Ellman | – | 15.2 µM |
| COc1ccc([C@@H]2N=NC(NCCc3c[nH]c4ccc(C)cc34)=NC2=O)cc1 | Ellman | – | 0.636 µM |
| COc1cc2c(cc1O)[C@@H]1Cc3ccc(OC(C)=O)c(OC)c3CN1CC2 | – | – | 41.5 µM |
| Cc1cc(O)c2c(c1)C(=O)c1c(O)ccc(O)c1C2=O | Ellman | – | 2.7 µM and 2.63 µM |
| COc1cc2c(cc1OC)[C@@H]1Cc3ccc(OC)c(OC)c3C[N+]1(C)CC2 (stereo partly drawn) | – | – | 21.2 µM |
| COc1cc2c(cc1OC)C(=O)C1(C2)C(c2ccc(Cl)cc2Cl)C(Cc2c[nH]c3ccccc23)NC12C(=O)Nc1ccc(OC(F)(F)F)cc12 (stereo not drawn) | – | pH 8 | 14.35 ± 0.14 µM |

Excerpt of the above:
| Structure (SMILES) | test | conditions | IC50 |
| --- | --- | --- | --- |
| COc1cc2c(cc1OC)C(=O)C(=CCC1CCN(Cc3ccccc3)CC1)C2 | Ellman | – | 0.036 µM |
| COc1ccc(/C=N/NC(=O)COc2ccc(Sc3ccc(OCC(=O)N/N=C/c4ccc(OC)c(OC)c4)cc3)cc2)cc1OC | – | – | 25.7 µM |
| O=C(CN1C(=O)c2ccccc2C1=O)Nc1cc[n+](Cc2ccc(F)cc2)cc1 | Ellman | – | 2.1 µM |
